Experimental data collected from several papers.
A part holds a random share of what one study measured.
Sequence of UniProt Q9HBH9 (whole entry, looked up): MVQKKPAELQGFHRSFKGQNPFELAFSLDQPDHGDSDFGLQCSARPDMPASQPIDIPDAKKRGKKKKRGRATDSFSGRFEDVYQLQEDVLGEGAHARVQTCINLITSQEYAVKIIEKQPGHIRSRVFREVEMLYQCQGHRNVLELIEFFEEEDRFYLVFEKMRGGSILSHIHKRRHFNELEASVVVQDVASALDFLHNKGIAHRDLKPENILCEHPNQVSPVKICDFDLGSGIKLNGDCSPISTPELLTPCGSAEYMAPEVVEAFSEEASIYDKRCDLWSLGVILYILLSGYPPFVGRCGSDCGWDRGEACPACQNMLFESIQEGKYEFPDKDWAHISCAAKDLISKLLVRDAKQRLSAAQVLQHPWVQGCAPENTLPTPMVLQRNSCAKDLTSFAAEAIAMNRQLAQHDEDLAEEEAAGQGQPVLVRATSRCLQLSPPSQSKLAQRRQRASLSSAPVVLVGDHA
Sequence of UniProt P51957 (whole entry, looked up): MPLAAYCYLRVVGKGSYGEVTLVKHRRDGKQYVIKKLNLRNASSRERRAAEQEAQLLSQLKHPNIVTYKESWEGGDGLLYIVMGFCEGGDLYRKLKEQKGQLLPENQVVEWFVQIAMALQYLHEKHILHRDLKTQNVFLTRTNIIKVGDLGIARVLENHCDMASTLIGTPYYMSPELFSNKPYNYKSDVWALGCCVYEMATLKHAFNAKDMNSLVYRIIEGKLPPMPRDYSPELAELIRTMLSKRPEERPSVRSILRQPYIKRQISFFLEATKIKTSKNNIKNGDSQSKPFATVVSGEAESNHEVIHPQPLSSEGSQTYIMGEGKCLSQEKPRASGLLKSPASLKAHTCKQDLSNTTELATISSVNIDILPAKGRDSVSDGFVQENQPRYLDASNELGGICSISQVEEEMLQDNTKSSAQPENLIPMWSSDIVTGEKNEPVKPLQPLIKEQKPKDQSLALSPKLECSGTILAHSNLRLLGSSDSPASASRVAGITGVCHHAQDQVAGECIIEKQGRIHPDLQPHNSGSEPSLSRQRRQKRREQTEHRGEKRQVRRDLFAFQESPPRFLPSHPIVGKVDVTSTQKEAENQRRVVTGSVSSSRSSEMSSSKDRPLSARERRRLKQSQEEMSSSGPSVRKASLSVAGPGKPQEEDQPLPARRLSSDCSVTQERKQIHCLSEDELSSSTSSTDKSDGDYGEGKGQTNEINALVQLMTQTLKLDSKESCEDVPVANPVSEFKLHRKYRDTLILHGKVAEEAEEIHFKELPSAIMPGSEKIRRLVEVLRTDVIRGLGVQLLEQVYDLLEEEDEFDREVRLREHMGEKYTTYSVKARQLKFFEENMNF
Sequence of UniProt Q15418 (whole entry, looked up): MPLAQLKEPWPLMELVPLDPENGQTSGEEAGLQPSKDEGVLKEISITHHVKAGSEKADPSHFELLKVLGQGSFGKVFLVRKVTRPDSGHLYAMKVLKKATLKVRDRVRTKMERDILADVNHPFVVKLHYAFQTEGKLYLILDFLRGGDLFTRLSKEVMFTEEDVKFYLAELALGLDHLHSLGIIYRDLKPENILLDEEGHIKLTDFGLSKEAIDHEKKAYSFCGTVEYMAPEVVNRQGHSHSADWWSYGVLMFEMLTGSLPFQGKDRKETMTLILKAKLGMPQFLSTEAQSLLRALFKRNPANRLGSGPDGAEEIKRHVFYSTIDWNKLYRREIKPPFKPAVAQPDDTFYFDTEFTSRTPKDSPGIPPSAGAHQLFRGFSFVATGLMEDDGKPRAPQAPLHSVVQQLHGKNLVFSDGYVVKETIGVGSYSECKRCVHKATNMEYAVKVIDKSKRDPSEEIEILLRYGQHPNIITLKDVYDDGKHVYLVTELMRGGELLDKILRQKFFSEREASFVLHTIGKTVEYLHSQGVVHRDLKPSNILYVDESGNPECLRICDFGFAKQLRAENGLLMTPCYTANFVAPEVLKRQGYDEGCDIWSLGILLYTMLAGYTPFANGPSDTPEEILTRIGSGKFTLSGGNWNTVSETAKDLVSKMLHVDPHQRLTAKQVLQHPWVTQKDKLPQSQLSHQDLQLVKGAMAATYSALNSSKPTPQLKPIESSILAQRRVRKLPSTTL
Sequence of UniProt P68400 (whole entry, looked up): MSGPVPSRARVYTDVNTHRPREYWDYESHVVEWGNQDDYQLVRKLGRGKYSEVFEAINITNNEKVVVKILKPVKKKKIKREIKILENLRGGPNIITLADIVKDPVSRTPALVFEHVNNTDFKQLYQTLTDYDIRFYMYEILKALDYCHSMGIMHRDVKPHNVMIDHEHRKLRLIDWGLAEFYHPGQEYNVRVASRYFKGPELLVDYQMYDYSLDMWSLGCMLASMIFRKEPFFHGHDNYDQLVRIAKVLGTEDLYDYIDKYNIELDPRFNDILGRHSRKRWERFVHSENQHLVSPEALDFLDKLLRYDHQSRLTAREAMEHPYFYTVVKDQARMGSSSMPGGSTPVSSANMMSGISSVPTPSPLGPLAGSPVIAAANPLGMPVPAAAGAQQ
Sequence of UniProt Q06187 (whole entry, looked up): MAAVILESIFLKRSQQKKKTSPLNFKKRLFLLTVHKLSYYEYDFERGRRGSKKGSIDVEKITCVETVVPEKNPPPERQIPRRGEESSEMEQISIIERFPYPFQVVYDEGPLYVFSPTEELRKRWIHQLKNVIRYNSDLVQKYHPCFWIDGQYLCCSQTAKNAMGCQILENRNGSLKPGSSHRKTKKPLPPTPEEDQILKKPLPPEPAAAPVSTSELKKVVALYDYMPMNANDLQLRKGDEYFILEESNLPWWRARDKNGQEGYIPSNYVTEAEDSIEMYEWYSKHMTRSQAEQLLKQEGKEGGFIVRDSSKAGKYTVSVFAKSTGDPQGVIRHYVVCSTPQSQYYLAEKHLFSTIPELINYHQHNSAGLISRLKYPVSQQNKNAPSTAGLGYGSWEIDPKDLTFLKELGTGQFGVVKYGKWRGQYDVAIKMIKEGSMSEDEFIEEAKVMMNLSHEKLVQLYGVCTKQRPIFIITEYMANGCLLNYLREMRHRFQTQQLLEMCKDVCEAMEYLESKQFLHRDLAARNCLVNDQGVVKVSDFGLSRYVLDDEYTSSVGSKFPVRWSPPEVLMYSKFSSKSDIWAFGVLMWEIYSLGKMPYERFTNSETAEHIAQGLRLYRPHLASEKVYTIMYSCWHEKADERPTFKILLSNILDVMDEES
Sequence of UniProt Q99683 (whole entry, looked up): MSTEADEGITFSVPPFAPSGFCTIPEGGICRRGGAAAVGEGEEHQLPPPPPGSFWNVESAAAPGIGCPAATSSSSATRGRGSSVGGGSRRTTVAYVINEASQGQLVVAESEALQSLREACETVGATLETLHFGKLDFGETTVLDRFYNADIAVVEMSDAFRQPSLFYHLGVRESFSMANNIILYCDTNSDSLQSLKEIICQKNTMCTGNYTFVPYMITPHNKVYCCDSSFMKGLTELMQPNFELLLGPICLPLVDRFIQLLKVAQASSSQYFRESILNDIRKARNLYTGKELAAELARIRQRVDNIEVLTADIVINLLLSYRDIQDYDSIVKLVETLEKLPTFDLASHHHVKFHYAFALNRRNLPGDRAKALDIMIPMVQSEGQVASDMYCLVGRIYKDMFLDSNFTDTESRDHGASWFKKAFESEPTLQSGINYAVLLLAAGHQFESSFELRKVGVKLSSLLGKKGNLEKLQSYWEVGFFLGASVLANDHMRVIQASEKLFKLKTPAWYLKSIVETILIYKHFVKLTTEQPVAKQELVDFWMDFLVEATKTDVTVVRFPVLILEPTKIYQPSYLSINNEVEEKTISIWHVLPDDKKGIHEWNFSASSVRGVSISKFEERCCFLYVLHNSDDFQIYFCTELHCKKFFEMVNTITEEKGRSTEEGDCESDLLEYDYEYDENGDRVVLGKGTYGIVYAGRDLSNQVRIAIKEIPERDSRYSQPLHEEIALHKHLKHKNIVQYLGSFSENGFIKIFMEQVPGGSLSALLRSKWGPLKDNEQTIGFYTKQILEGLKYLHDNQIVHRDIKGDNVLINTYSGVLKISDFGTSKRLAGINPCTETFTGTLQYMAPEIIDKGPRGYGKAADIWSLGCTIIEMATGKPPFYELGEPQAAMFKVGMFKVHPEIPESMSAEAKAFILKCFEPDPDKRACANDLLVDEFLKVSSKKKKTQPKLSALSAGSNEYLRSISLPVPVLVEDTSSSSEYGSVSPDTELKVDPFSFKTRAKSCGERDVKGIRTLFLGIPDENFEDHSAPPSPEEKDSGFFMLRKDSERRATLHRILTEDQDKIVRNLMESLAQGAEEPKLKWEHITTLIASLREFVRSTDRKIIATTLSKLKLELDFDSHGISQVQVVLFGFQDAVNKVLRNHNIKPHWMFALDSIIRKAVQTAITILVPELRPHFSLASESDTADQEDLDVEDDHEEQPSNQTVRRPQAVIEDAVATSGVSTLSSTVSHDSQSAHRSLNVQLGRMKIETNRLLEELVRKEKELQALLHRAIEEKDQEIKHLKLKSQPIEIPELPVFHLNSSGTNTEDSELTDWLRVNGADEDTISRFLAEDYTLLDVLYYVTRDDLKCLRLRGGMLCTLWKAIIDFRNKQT

Sample 1 — observed: enzyme activity; action: inhibitor; concentration: 10 µM
Target: Calcium/calmodulin-dependent protein kinase type II subunit alpha (CAMK2A, Homo sapiens, UniProt Q9UQM7)
Sequence of UniProt Q9UQM7 (whole entry, looked up): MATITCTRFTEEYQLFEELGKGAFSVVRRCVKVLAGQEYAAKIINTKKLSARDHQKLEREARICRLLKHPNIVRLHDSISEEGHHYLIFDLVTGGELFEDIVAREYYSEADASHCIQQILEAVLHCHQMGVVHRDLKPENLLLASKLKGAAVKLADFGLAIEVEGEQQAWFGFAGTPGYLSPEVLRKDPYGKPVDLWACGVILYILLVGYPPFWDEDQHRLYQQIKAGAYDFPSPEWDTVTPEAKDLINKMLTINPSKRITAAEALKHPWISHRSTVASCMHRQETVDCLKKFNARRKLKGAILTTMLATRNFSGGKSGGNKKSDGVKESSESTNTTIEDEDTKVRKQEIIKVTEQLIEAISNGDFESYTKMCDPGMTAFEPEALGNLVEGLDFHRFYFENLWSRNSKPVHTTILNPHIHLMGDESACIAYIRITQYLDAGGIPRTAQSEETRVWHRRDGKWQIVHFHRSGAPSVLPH
| Compound | inhibition [%] |
| --- | --- |
| CC(C)=CCC1=C(O)C(=O)c2ccccc2C1=O | 0 |
| CSc1ccc2c(c1)N(CCC1CCCCN1C)c1ccccc1S2 (stereo not drawn) | -3 |
| CCCCC(=O)O[C@]1(C(=O)CO)[C@@H](C)C[C@H]2[C@@H]3CCC4=CC(=O)C=C[C@]4(C)[C@@]3(F)[C@@H](O)C[C@@]21C | -3 |
| CC(O)C(=O)O (stereo not drawn) | 2 |
| CC1CC(OC(=O)C(O)c2ccccc2)CC(C)(C)C1 (stereo not drawn) | -6 |
| O=c1c(O[C@@H]2O[C@H](CO[C@@H]3O[C@H](CO)[C@@H](O)[C@H](O)[C@H]3O)[C@@H](O)[C@H](O)[C@H]2O)c(-c2ccc(O)cc2)oc2cc(O)cc(O)c12 | -32 |
| CC(=O)NCCCS(=O)(=O)O | -6 |
| CCCCCCCC(=O)OC | -84 |
| CO[C@@H]1[C@H](OC(=O)/C=C/C=C/C=C/C=C/C(=O)O)CC[C@]2(CO2)[C@H]1[C@@]1(C)O[C@@H]1CC=C(C)C | -8 |
| O=C(O)CC(CC(=O)O)C(=O)O | -33 |
| COc1cc2c(cc1O)CC[C@@H]1[C@@H]2CC[C@]2(C)C(=O)CC[C@@H]12 | 6 |
| Nc1ccc(S(=O)(=O)Nc2ccc(Cl)nn2)cc1 | 5 |
| COc1cc(C[C@@H](CO)[C@H](CO)Cc2ccc(O)c(OC)c2)ccc1O | 11 |
| CC(C)=CCc1c2ccoc2c(O)c2oc(=O)ccc12 | -17 |
| CC(C)=CCC[C@](C)(O[C@@H]1O[C@H](CO[C@@H]2OC[C@H](O)[C@H](O)[C@H]2O)[C@@H](O)[C@H](O)[C@H]1O)[C@H]1CC[C@]2(C)[C@@H]1[C@H](O)C[C@@H]1[C@@]3(C)CC[C@H](O)C(C)(C)[C@@H]3[C@@H](O)C[C@]12C | 0 |
| O=C(O)CCC(=O)c1ccc(-c2ccccc2)cc1 | -7 |
| OCc1ccc(Cl)cc1Cl | -5 |
| CC1(C)C2=CCCC(C)(C)[C@]23CC[C@H]1C3 | -25 |

Sample 2 — host: human; medium: microsomes or S9; concentration: 2 µM; time: 0.5 h
| SMILES | remaining compound [%] |
| --- | --- |
| CCCOc1cccc([C@@H]2c3ccc(OC)cc3OC(=O)[C@H]2C(C)(C)O)c1 | 57.9 |
| Cc1cc(=O)n(CCNC(=O)c2nc3nc(C)cc(C)n3n2)cn1 | > 99 |
| c1cc(-c2ncnc3sccc23)c2cc[nH]c2n1 | 34 |
| Cc1cc(F)c(S(N)(=O)=O)c(NCCCOC(C)C)c1 | 16.5 |
| CCC1(CC)NC(=O)N(Cc2cc3ccc(C)c(C)c3nc2Cl)C1=O | 9.86 |
| COC(=O)c1sccc1N1C(=O)C/C(=C/c2c[nH]c3ncccc23)C1=O | 37.1 |
| CC(c1ccc([S+](C)[O-])cc1)N(C)C(=O)C1CCC(c2ccccc2)CC1 (stereo not drawn) | 54.6 |
| O=C1CC(c2ccc(S(=O)(=O)N3CCOC(COc4ccccc4)C3)cc2)CN1 (stereo not drawn) | 44.3 |
| COC(=O)N(C)CCCC1(C)C(=O)N(C)c2ccc(O)cc21 (stereo not drawn) | 61.4 |
| Cc1ccccc1-c1nc2ccccc2cc1Cn1nc(-c2cncnc2)c2cnc(N)nc21 | > 99 |
| COC(=O)C(OC(C)(C)C)c1cc2c(nc1C)C(=O)NCC2 (stereo not drawn) | 80 |
| COC(=O)c1cccc(OCCn2c(=O)[nH]c3cc(F)c(F)cc3c2=O)c1 | 0.00351 |
| Cc1ccc2cc(CN(CCO)S(=O)(=O)c3ccc(C(C)(C)C)cc3)c(=O)[nH]c2c1C | > 100 |
| CCC1(N2CCN(C(=O)c3sccc3C)CC2)CCN(S(C)(=O)=O)C1 (stereo not drawn) | 57.8 |

Sample 3 — concentration: 1 µM
Structure (SMILES): O=C(NCc1ncc(C(F)(F)F)cc1Cl)c1ccc2c(c1)C1(CCS(=O)(=O)CC1)[C@@H](C1CC1)N2S(=O)(=O)c1ccc(F)cc1
| target | assay | remaining binding [%] |
| --- | --- | --- |
| Tyrosine-protein kinase ABL1, phosphorylated (ABL1, Homo sapiens, UniProt P00519, T315I) | cell-free assay, competition with immobilised ligand | 84 |
| FGFR3 (Homo sapiens, UniProt P22607) | cell-free assay, competition with immobilised ligand | 100 |
| SIK3 (Homo sapiens, UniProt Q9Y2K2) | cell-free assay, competition with immobilised ligand | 72 |
| FGFR2 (Homo sapiens, UniProt P21802) | cell-free assay, competition with immobilised ligand | 98 |
| Tyrosine-protein kinase ABL1, phosphorylated (ABL1, Homo sapiens, UniProt P00519, F317I) | binding | 80 |
| ROS1 (Homo sapiens, UniProt P08922) | cell-free assay, competition with immobilised ligand | 100 |
| ACVR1 (Homo sapiens, UniProt Q04771) | cell-free assay, competition with immobilised ligand | 97 |
| MARK1 (Homo sapiens, UniProt Q9P0L2) | cell-free assay, competition with immobilised ligand | 100 |
| MAP3K5 (Homo sapiens, UniProt Q99683) | cell-free assay, competition with immobilised ligand | 100 |
| CAMKK1 (Homo sapiens, UniProt Q8N5S9) | cell-free assay, competition with immobilised ligand | 72 |
| PRKAA1 (Homo sapiens, UniProt Q13131) | cell-free assay, competition with immobilised ligand | 97 |
| MET (Homo sapiens, UniProt P08581) | cell-free assay, competition with immobilised ligand | 81 |
| MAP3K7 (Homo sapiens, UniProt O43318) | cell-free assay, competition with immobilised ligand | 63 |
| PAK1 (Homo sapiens, UniProt Q13153) | cell-free assay, competition with immobilised ligand | 80 |
| FES (Homo sapiens, UniProt P07332) | cell-free assay, competition with immobilised ligand | 93 |
| STK25 (Homo sapiens, UniProt O00506) | cell-free assay, competition with immobilised ligand | 99 |
| GRK1 (Homo sapiens, UniProt Q15835) | cell-free assay, competition with immobilised ligand | 79 |
| Ribosomal protein S6 kinase alpha-1, N-terminal kinase domain (RPS6KA1, Homo sapiens, UniProt Q15418) | cell-free assay, competition with immobilised ligand | 89 |
| PIK3CA (Homo sapiens, UniProt P42336, E542K) | cell-free assay, competition with immobilised ligand | 82 |
| BLK (Homo sapiens, UniProt P51451) | cell-free assay, competition with immobilised ligand | 100 |

Sample 4 — Compound: O=C1Nc2ccccc2/C1=C\c1c(Cl)[nH]c2ccccc12; observed: enzyme activity; action: inhibitor; concentration: 0.5 µM; baseline: control
| target | remaining activity [%] |
| --- | --- |
| PLK2 (Homo sapiens, UniProt Q9NYY3) | 98.2 |
| MAP3K10 (Homo sapiens, UniProt Q02779) | 94.7 |
| MAP2K6 (Homo sapiens, UniProt P52564) | 93.4 |
| LRRK2 (Homo sapiens, UniProt Q5S007) | 102 |
| MAPK12 (Homo sapiens, UniProt P53778) | 93 |
| PRKG1 (Homo sapiens, UniProt Q13976) | 92.5 |
| WNK2 (Homo sapiens, UniProt Q9Y3S1) | 93.4 |
| BTK (Homo sapiens, UniProt Q06187) | 94.6 |
| MKNK2 (Homo sapiens, UniProt Q9HBH9) | 93.5 |
| LYN (Homo sapiens, UniProt P07948) | 99.7 |
| PRKCD (Homo sapiens, UniProt Q05655) | 88.4 |
| Cyclin-dependent kinase 9, with cyclin T1 (CDK9, Homo sapiens, UniProt P50750) | 98.4 |
| MAPK13 (Homo sapiens, UniProt O15264) | 98.9 |
| IRAK4 (Homo sapiens, UniProt Q9NWZ3) | 102 |
| KIT (Homo sapiens, UniProt P10721) | 90.2 |
| AKT3 (Homo sapiens, UniProt Q9Y243) | 93.6 |
| CHEK1 (Homo sapiens, UniProt O14757) | 93.7 |
| NEK4 (Homo sapiens, UniProt P51957) | 97.7 |
| CSNK2A1 (Homo sapiens, UniProt P68400) | 89.4 |
| PRKCI (Homo sapiens, UniProt P41743) | 99.2 |
| MAP4K2 (Homo sapiens, UniProt Q12851) | 97.9 |
| CSNK1A1 (Homo sapiens, UniProt P48729) | 102 |
| EPHA5 (Homo sapiens, UniProt P54756) | 83.4 |

Repeated from above (sample 2):
| SMILES | remaining compound [%] |
| --- | --- |
| c1cc(-c2ncnc3sccc23)c2cc[nH]c2n1 | 34 |
| CCC1(CC)NC(=O)N(Cc2cc3ccc(C)c(C)c3nc2Cl)C1=O | 9.86 |
| COC(=O)N(C)CCCC1(C)C(=O)N(C)c2ccc(O)cc21 (stereo not drawn) | 61.4 |
| Cc1ccccc1-c1nc2ccccc2cc1Cn1nc(-c2cncnc2)c2cnc(N)nc21 | > 99 |
| Cc1cc(F)c(S(N)(=O)=O)c(NCCCOC(C)C)c1 | 16.5 |
| COC(=O)c1sccc1N1C(=O)C/C(=C/c2c[nH]c3ncccc23)C1=O | 37.1 |
| Cc1ccc2cc(CN(CCO)S(=O)(=O)c3ccc(C(C)(C)C)cc3)c(=O)[nH]c2c1C | > 100 |
| COC(=O)C(OC(C)(C)C)c1cc2c(nc1C)C(=O)NCC2 (stereo not drawn) | 80 |
| CCCOc1cccc([C@@H]2c3ccc(OC)cc3OC(=O)[C@H]2C(C)(C)O)c1 | 57.9 |
| O=C1CC(c2ccc(S(=O)(=O)N3CCOC(COc4ccccc4)C3)cc2)CN1 (stereo not drawn) | 44.3 |
| CCC1(N2CCN(C(=O)c3sccc3C)CC2)CCN(S(C)(=O)=O)C1 (stereo not drawn) | 57.8 |
| Cc1cc(=O)n(CCNC(=O)c2nc3nc(C)cc(C)n3n2)cn1 | > 99 |
